# Measurements of several laboratories.
# Lines come from different studies, so protocols differ. Values joined by “and” are separate records of one study, mostly repeats; a detail may differ. ± gives the spread as reported.
# Fibroin-modulator-binding protein-1: Fibroin-modulator-binding protein-1 99-193 (Bombyx mori, UniProt Q5FBS0)
# HLA class I histocompatibility antigen, A alpha chain allele A*24:02: HLA class I histocompatibility antigen, A alpha chain, allele A*24:02 (Homo sapiens, UniProt P04439)
Molecule,tested on,test,system,conditions,scale,endpoint,result
ALLEWLTTL,Jurkat T cells expressing 1G4 TCR,"NFAT-eGFP reporter, fluorescence microscopy",peptide,"concentration not given, HLA-A*02:01 NY-ESO system",,reporter activation,0.0108%
milbemycin oxime,Saccharomyces cerevisiae,cell growth,"Pdr5 deleted, Cdr1 overexpressed","2^-3.966 µg/mL, together with: fluconazole 10 µg/mL",,OD600,0.029 and 0.037
GSGAGHETIV,human SCRIB PDZ3-4 tandem (MBP fusion),automated holdup,"peptide, crude extract","concentration not given, uncorrected, unit not given","reference: biotin control resin, higher = stronger binding",binding intensity,0.457
Peginesatide,UT7/EPO,"tyrosine phosphorylation, LC-MS/MS phosphoproteomics, GluC, item: SHIP1 tyrosine 865",,"10 nM, 15 min, together with: 10 U/mL EPO",reference: vehicle,phosphorylation level,2.5 fold
GSGAGQITKV,human MAGI1-3/6 PDZ construct (MBP fusion),automated holdup,"peptide, purified PDZ protein","concentration not given, unit not given","reference: biotin control resin, higher = stronger binding",binding intensity,0.188
hemoglobin alpha,,co-immunoprecipitation,human RBC cytosol,"DSSO crosslinker, unit not given, together with: Band 3 peptide 1-56 bait",reference: negative control,co-IP enrichment,11600
Polymyxin B,Staphylococcus aureus,DiSC3(5) fluorescence,,"concentration not given, 57 min",higher = more depolarisation,membrane depolarisation,711 a.u. and 576 a.u. and 519 a.u.
SLLEWVTQV,Jurkat T cells expressing 1G4 TCR,"NFAT-eGFP reporter, flow cytometry",peptide,"concentration not given, HLA-A*02:01 NY-ESO system",,reporter activation,0.15%
KDECVIATEV,human MAGI1-3/6 PDZ construct (MBP fusion),automated holdup,"peptide, crude extract","concentration not given, uncorrected, unit not given","reference: biotin control resin, higher = stronger binding",binding intensity,-0.0502
Rilpivirine docusate,,,buffer,pH 4.5,,equilibrium solubility,0.1 ± 0.03 µg/mL
WVFEHPETL,"HLA class I histocompatibility antigen, A alpha chain, allele A*02:01 (Homo sapiens, UniProt P04439)","peptide-MHC stability, brefeldin A chase","peptide, T2 cells",,,complex half-life,1.58 h
AGCGAGCGAGCG (dsDNA),Fibroin-modulator-binding protein-1,ITC,"double-stranded DNA, one strand shown",,,Kd,9 µM
cotadutide,,"metabolomics, item: hepatic 1-arachidonylglycerol (20:4)","ob/ob mice on AMLN diet, NASH model, liver",dose not given,,metabolite level,0.6 ± 0.12 scaled intensity
ILEAAKSIAAATSALVKAASAAQRE,vinculin head domain Vd1,"complex rupture, AFM single-molecule force spectroscopy",peptide,"double traces, C-terminal pulling, 800 nm/s",,mean rupture force,44.8 pN
GSGAGKETEC,human MAGI1-2/6 PDZ construct (MBP fusion),surface plasmon resonance,peptide,concentration not given,higher = stronger binding,normalised SPR binding response,0 normalised RU
LIMQLMPF,"HLA class I histocompatibility antigen, A alpha chain allele A*24:02",conformational ELISA,peptide,concentration not given,"reference: positive control peptide, direction not given",binding score,17.1%
colistin,Pseudomonas aeruginosa,broth microdilution,clinical isolate RKI-No_482/15,,,MIC,1 µg/mL
GLFQWIVQA,Jurkat T cells expressing 1G4 TCR,"NFAT-eGFP reporter, flow cytometry",peptide,"concentration not given, HLA-A*02:01 NY-ESO system",,reporter activation,0.22%
thimet oligopeptidase,,co-immunoprecipitation,human RBC membrane,"DMTMM crosslinker, unit not given, together with: Band 3 peptide 1-56 bait",reference: negative control,co-IP enrichment,251000
QLIMQLMPF,"HLA class I histocompatibility antigen, A alpha chain allele A*24:02","complex stability, off-rate",peptide,37 °C,,half-life of peptide-HLA complex,0.7 h
human HSC70,,co-immunoprecipitation,human RBC membrane,"DMTMM crosslinker, unit not given, together with: Band 3 peptide 1-56 bait",reference: negative control,co-IP enrichment,38
ALLEWIDIV,Jurkat T cells expressing 1G4 TCR,"NFAT-eGFP reporter, fluorescence microscopy",peptide,"concentration not given, HLA-A*02:01 NY-ESO system",,reporter activation,0.00725%
human delta-aminolevulinic acid dehydratase,,co-immunoprecipitation,human RBC membrane,"DMTMM crosslinker, unit not given, together with: Band 3 peptide 1-56 bait",reference: negative control,co-IP enrichment,37.1
VLAQWIPRL,Jurkat T cells expressing 1G4 TCR,"NFAT-eGFP reporter, fluorescence microscopy",peptide,"concentration not given, HLA-A*02:01 NY-ESO system",,reporter activation,0.0106%
USP14,,co-immunoprecipitation,human RBC cytosol,"DSSO crosslinker, unit not given, together with: Band 3 peptide 1-56 bait",reference: negative control,co-IP enrichment,6540
ALLQWVDLV,Jurkat T cells expressing 1G4 TCR,"NFAT-eGFP reporter, fluorescence microscopy",peptide,"concentration not given, HLA-A*02:01 NY-ESO system",,reporter activation,0.0068%
GSGAGSETSV,human MAGI1-2/6 PDZ construct (MBP fusion),automated holdup,"peptide, purified PDZ protein","concentration not given, unit not given","reference: biotin control resin, higher = stronger binding",binding intensity,0.0979
human immunoglobulin gamma-1 constant,,co-immunoprecipitation,human plasma,"no crosslinker, unit not given, together with: Band 3 peptide 1-56 bait",reference: negative control,co-IP enrichment,1.24e+06
ALMQWVSQV,Jurkat T cells expressing 1G4 TCR,"NFAT-eGFP reporter, flow cytometry",peptide,"concentration not given, HLA-A*02:01 NY-ESO system",,reporter activation,58.7%
MTVCNASQRQAHAQATAVSL,PANC-1,phage binding,peptide,,reference: targeting over control phage,selectivity ratio,0.66 ± 0.33
CCT6A,,co-immunoprecipitation,human RBC cytosol,"DMTMM crosslinker, unit not given, together with: Band 3 peptide 1-56 bait",reference: negative control,co-IP enrichment,29100
RLYQWIPQV,Jurkat T cells expressing 1G4 TCR,"NFAT-eGFP reporter, fluorescence microscopy",peptide,"concentration not given, HLA-A*02:01 NY-ESO system",,reporter activation,1.31%
TASPAKETSF,human SCRIB PDZ3-4 tandem (MBP fusion),automated holdup,"peptide, purified PDZ protein","concentration not given, unit not given","reference: biotin control resin, higher = stronger binding",binding intensity,0.789
GCCGGCCGGCCG (dsDNA),Fibroin-modulator-binding protein-1,ITC,"double-stranded DNA, one strand shown",,,Kd,5.05 µM
GSGAGRETEV,human MAGI1-3/6 PDZ construct (MBP fusion),surface plasmon resonance,peptide,concentration not given,higher = stronger binding,normalised SPR binding response,13.7 normalised RU
human alpha-enolase,,co-immunoprecipitation,human RBC membrane,"unit not given, together with: Band 3 peptide 1-56 bait",reference: negative control,co-IP enrichment,1.04
QDEKVKESYV,human MAGI1-2/6 PDZ construct (MBP fusion),surface plasmon resonance,peptide,concentration not given,higher = stronger binding,normalised SPR binding response,16.2 normalised RU
epoetin alfa,UT7/EPO,"microarray, item: EGR4 (probe 207768_at)",,"5 U/mL, 90 min, together with: SCF 10 nM",reference: vehicle,mRNA level,12 fold
